Published values from different studies.
Parts stem from different laboratories: compare values within a part only. Positions count from the first letter of the parent shown.

Set 1
Target: RNA binding protein fox-1 homolog 2, RRM domain, GST-SBP tag (RBFOX2, Homo sapiens, UniProt O43251-10, residues 100-194)
Method: RNA Bind-n-Seq
Form: RNA
Matrix: in vitro
Tested at: 365 nM
Setting: natural RNA segment, single round, ends assumed
Reference: no-protein control
Direction: higher = stronger binding
Constant ends, left off below: GGGAGUUCUACAGUCCGACGAUC … UGGAAUUCUCGGGUGCCAA
Target sequence (chain): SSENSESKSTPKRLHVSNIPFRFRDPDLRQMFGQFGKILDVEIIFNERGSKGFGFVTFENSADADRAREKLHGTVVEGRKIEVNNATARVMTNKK
| Sequence | RBNS enrichment (R) |
| --- | --- |
| UUCCCGUCCUCCCGCAGUCAGAAAGGAGACUCUGCCUCCCUCCUCCUCACUGAGUGCCUCAUCCUACCGGGUGUCCCUUUGCCACCCUGCCUGGGACAUCGCUGGAACCU | 0.565 |
| AAAAGUAUAUGCAGGAUUAAUUUUACAUAAAGGCCUCUUCUGUAACAUUUCUCUAUUUUUUGAAAUACAAUUGCAAUAACUUCAGUCUUUUUACAUUCUUCUGCUGCAUC | 1.2 |
| GGGUGGCUUUUGGUUUUUGUUUCUUUCUUGUCUUGUCUUUUAUUGAAAGGAAAUCAAAAAUAGGCUAAACAGAAUUUUGAGGGCAUGGCCCAAAUAACUCAUGAGUUCCA | 2.03 |
| UCAUGAAAGGGGCAGUUGCACAGUGGAAUGACUCCUCUCCUGGAUCUGGGGACAGCAUACACUUCUUCCCCAGCUCAGUAAUGGGUGAAGUCACUUCCGGAGGUGGUCAC | 0.303 |
| UAACCAGGAUGCUUAUGUUCUUAAGUCUAUAUUUGCAUAUACAUUGACUCUUGAUGGAAAGACUUAAGAAGAUCAAGGUCUCACCAUUUGUCCUCAAUUCGUGUGACCAU | 0.428 |
| GCUUUGGGCACAGCCUGCUGUCUUUUCCAUUUCCUAAAGUUUACUUCAUUGUCUUGAGGCUUCCAGGUUUUGUUUUUGUUUUUGCCAAAGUAGAAAAGGCAGGUGGUGGG | 1.01 |
| AGCCACCCUUCCUCUUCUGGACCCAGCCUGGUCUGCACUGCAACCUCCACCAGGACCAGGAUCCUGGGCCACAGGCUGGGAUGGUCCUUCCAAGAAAGGGUCAUUUCAGA | 0.389 |
| GCUCAUCUUGCAAAGCGCUAUUUCAGGCACAUCAUUGGAAUACAGGAAGUAGCCCUGCACCUGCCAGUGAGCUCGCCAUUCACUGAUUGGAAGAGUGACCUGGCAUCUUG | 0.256 |
| UGUGGUGCUUCCGACCCUGGCUGUCAGAGUGAAAUGUAAAGUCAGGGCUCUGUACAGUUUUGCCAUUUCACUGUUCUGCUUUAAGCUUAGCUUAUUAGAACUCUUGGUGG | 0.194 |
| ACAGGGGUCCCACAUUCUUGUGUAGUUUGCACAGGUACAUGUGCAGUUUCCUGAAGGAUGGAGGGAAUCUUUGUAAACAGAGAUCCACUUGCCAGGAUAAAAAUGUGGCC | 0.257 |
| UCCAAGGCAGAAGUGGCCCAUGAGUGGCCCCAGAGCAGAGGUGCCCCAGGCAGUGCAGCUCCCUGGUGGGUUGGUAGAGGGACCUCAGCUUAAGGAACUGCCCUGCCACU | 0.752 |
| CUUGGCCACCACAUGGCCAUCCUCAGUGAGGCGCCAUGAACCCUUCUUAGGCCCUCAGGUCCCCAUAGCACUGGGAGGGGGCGCUGGGGACCAUGUGCCCAGGGACUGCA | 3.99 |

Set 2
Target: Sal-like protein 4, full length isoform A (SALL4, Homo sapiens, UniProt Q9UJQ4, residues 1-1053)
Sequence of UniProt Q9UJQ4 (whole entry, looked up): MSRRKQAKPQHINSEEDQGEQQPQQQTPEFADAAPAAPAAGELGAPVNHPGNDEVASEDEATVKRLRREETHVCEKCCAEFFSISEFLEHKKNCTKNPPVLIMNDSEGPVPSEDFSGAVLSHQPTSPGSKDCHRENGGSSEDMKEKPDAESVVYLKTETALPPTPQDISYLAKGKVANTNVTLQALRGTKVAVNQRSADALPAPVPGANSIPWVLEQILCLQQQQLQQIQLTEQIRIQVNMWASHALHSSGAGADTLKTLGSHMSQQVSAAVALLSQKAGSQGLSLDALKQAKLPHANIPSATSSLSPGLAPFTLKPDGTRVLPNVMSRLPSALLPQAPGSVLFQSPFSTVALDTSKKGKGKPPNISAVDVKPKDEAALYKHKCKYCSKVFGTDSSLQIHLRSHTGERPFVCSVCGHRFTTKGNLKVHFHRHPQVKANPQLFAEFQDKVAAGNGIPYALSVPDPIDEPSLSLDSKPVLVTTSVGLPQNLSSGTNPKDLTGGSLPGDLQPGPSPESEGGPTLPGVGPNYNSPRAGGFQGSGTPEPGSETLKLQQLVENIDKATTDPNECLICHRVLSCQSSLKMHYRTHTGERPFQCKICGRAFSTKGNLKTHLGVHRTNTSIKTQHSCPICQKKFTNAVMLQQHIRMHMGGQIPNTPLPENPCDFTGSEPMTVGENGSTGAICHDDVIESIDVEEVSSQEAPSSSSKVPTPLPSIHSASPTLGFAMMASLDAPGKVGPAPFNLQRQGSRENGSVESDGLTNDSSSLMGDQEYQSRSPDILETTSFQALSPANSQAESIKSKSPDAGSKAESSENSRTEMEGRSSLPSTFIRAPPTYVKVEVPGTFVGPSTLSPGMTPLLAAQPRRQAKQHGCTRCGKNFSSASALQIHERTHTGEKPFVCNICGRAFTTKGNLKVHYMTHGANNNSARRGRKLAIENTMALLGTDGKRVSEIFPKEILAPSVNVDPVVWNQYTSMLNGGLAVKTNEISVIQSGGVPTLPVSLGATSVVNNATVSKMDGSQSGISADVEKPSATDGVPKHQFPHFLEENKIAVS
Method: universal PBM
Form: double-stranded DNA, one strand shown
Matrix: in vitro
Tested at: 600 nM
Setting: 8-mer, flanks averaged, mean of replicates
Direction: higher = stronger binding
| Sequence | E-score |
| --- | --- |
| CCACTATA | 0.207 |
| CTTCTATC | 0.00749 |
| CGTATACC | -0.199 |
| CCTCTTAC | -0.154 |
| ATAAGGAG | 0.111 |
| AGAAACTA | -0.0273 |
| GCAGCTCC | -0.259 |
| AATTCAAC | 0.14 |
| GCGCACGC | -0.317 |
| CATGAGAG | -0.111 |
| AACGAAGA | 0.121 |
| ATGAGCAT | 0.16 |
| AAATGGTG | 0.167 |
| CTCCTAAA | -0.0337 |
| CAAGAGTG | 0.0374 |
| AAATACTG | 0.177 |
| AAGGTCAA | 0.0755 |
| TACGGCGA | -0.138 |
| TGGGCCAA | -0.0944 |
| AGAGTTGG | -0.098 |
| GAATGCGC | -0.119 |
| CGCTTCTC | -0.26 |
| CTTCATAA | 0.372 |
| CTGTGCAC | -0.146 |
| ATAAGTTC | 0.233 |

Set 3
Target: Prothrombin, mature alpha-thrombin (F2, Homo sapiens, UniProt P00734)
Method: aptamer microarray, sandwich
Form: DNA with 2'F-ANA
Matrix: in vitro
Tested at: 200 nM
Setting: whole 15-mer aptamer, many near background
Together with: Cy3 exosite-II aptamer, 400 nM
Direction: higher = stronger binding
Sequence: GGTTGGTGTGGTTGG
| Modification | mean fluorescence intensity [a.u.] |
| --- | --- |
| 2'F-ANA at 4 6 9 14 | 75.4 |
| 2'F-ANA at 1 2 5 8 9 11 13 | 49.5 |
| 2'F-ANA at 1 3 6 8 9 13 14 | 79.8 |
| 2'F-ANA at 2 3 4 8 9 10 12 13 | 248 |
| 2'F-ANA at 3 5 6 7 9 10 14 15 | 47.4 |
| 2'F-ANA at 5 10 11 14 15 | 68.4 |
| 2'F-ANA at 1 3 4 6 8 9 12 14 15 | 81.6 |
| 2'F-ANA at 1 4 6 7 8 9 12 14 15 | 58.6 |
| 2'F-ANA at 2 3 4 7 10 12 14 | 222 |
| 2'F-ANA at 2 6 8 9 11 12 | 526 |
| 2'F-ANA at 2 4 5 6 10 11 14 | 49.1 |
| 2'F-ANA at 1 2 4 6 8 9 10 14 15 | 50.4 |
| 2'F-ANA at 1 2 3 5 6 8 10 11 12 13 | 84.3 |
| 2'F-ANA at 2 4 5 7 8 9 10 | 48.1 |
| 2'F-ANA at 4 6 7 8 10 15 | 83.2 |
| 2'F-ANA at 5 7 8 10 15 | 46.7 |
| 2'F-ANA at 1 3 4 5 6 8 9 10 11 13 14 | 65.9 |
| 2'F-ANA at 2 4 6 7 8 12 13 | 406 |
| 2'F-ANA at 1 6 12 | 372 |
| 2'F-ANA at 2 4 6 11 12 15 | 405 |
| 2'F-ANA at 3 4 5 8 10 12 13 | 49.2 |
| 2'F-ANA at 1 2 4 5 6 7 9 11 13 14 | 48.2 |
| 2'F-ANA at 1 2 3 4 6 7 10 11 13 15 | 52.9 |
| 2'F-ANA at 2 3 5 6 12 13 14 | 53.3 |
| 2'F-ANA at 2 4 7 8 9 10 11 12 13 15 | 90.6 |

Set 4
Target: XBP1, bZIP domain (human)
Method: DHFR protein complementation
Matrix: yeast
Setting: single substitutions, most at no-binding floor
Reference: wild-type JUN-FOS pair
Direction: higher = stronger binding
Starting sequence: JUN, bZIP domain (human); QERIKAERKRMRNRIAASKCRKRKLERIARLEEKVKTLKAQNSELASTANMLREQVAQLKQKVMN; partner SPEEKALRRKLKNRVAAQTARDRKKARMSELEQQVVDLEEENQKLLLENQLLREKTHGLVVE
| Variant | binding fitness [natural log] |
| --- | --- |
| S43E | -0.271 |
| R53W | -1.5 |
| E54G | -1.14 |
| R53T | -1.48 |
| T37C | -0.737 |
| S47H | -0.514 |
| Q55P | -1.35 |
| S43M | -0.554 |
| E33F | -1.29 |
| K34V | -1.16 |
| A46L | -0.549 |
| E33T | -1.21 |
| L45M | -1.39 |
| E44K | -1.24 |
| L59T | -0.714 |
| Q41H | -0.915 |
| T48Y | -1.37 |
| L45F | -1.52 |
| L52Y | -1.37 |
| T48Q | -0.446 |
| A49Q | -0.51 |
| L38K | -1.49 |
| L45A | -1.47 |
| M51N | -0.91 |
| V56H | -1.02 |

Set 5
Target: Histone acetyltransferase KAT6A, both winged helices, GST fusion (KAT6A, Homo sapiens, UniProt Q92794, residues 1-181)
Method: protein binding microarray
Form: double-stranded DNA, one strand shown
Matrix: in vitro
Tested at: not given
Setting: 8-mer, flanks averaged, mean of 2 arrays, mostly near background
Reference: not given
Direction: higher = stronger binding
Construct (chain): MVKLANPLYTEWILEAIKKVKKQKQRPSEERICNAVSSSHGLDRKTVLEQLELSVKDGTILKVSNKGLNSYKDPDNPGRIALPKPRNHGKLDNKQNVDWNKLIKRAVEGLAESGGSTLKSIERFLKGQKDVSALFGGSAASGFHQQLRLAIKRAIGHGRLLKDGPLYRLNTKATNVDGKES
| Sequence | E-score |
| --- | --- |
| ACCGCTAC | 0.213 |
| ACGTCGGA | 0.0848 |
| CTGTCGAC | 0.0641 |
| ACCAGGGC | 0.021 |
| CTGTAGGC | -0.0859 |
| AGCTCGGA | -0.0786 |
| GCGGTGAC | 0.239 |
| AATTGCGG | 0.263 |
| ATGCTCAG | -0.16 |
| CATCAACC | 0.0118 |
| GGATGCAA | -0.118 |
| CGTGTAAG | 0.0158 |
| CTCAGTTA | 0.0256 |
| ACGTAGAT | -0.0481 |
| AAGTCCGA | 0.0826 |
| ACCACACT | -0.0943 |
| GCTAAACC | 0.0506 |
| ACGGTCCA | 0.077 |
| AAGGCGCA | 0.193 |
| GAGGAGAC | 0.0136 |
| CTACACAC | -0.153 |
| CAGTGATA | -0.152 |
| CGAACTTC | -0.0249 |
| CTCACAAC | -0.0538 |
| ATAAGCAG | -0.208 |

Set 6
Target: Interferon regulatory factor 7, full length, phosphomimetic (IRF7, Homo sapiens, UniProt Q92985, residues 1-503, S101K/S471D/S472D/S475D/S476D/S477D/S483D/S484D/S487D)
Method: protein-binding microarray
Form: double-stranded DNA, one strand shown
Matrix: in vitro
Tested at: 250 nM
Setting: 60-bp whole probe
Together with: salmon DNA 0.4 mg/ml
Reference: random background probes
Direction: higher = stronger binding
Constant ends, left off below: GCCTAGCAC … GTCTTGATTCGCTTGACGCTGCTG
Target sequence (chain): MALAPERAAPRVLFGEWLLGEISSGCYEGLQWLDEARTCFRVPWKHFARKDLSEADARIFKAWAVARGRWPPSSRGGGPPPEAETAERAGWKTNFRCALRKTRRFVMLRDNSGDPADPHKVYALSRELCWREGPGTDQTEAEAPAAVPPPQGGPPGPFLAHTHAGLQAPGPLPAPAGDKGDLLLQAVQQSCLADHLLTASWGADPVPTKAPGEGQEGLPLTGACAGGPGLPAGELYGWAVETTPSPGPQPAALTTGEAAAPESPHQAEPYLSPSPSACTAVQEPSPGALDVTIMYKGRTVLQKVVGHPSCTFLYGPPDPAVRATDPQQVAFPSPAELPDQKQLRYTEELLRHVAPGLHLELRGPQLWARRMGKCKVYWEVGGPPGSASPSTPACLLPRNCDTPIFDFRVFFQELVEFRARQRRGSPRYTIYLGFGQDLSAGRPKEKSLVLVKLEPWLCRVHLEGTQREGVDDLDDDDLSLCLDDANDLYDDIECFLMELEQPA
| Sequence | log fluorescence [z-score] |
| --- | --- |
| TCATTTTTCTAACTAAAACTGTGCTAG | 1.47 |
| TTAGCACTGCTTTTCCTTTAGTGCTAG | 0.236 |
| TTAGGTAACCTTCTCCTTTAGTGCTAG | 0.0321 |
| GACGGTCTCCCTATCCTGACGTGCTAG | 0.137 |
| TTGGGTATCGGGTATCGGTTAGTGCTA | 1.36 |
| TTAGGTTTCGGGTATCGGTGAGTGCTA | 6.79 |
| GACGAACTGGGGACTGGTGACGTGCTA | -0.584 |
| TTAGGTATCGGTATGGGTTAGTGCTAG | 1.36 |
| GACGGTATAGGTCTCGGGACGTGCTAG | -0.182 |
| TCATGTCTGCCTTTCAAACTGTGCTAG | -0.179 |
| TCTTGTCTGGAGTCTCTGTTCGTGCTA | 0.823 |
| TCATTTTTCTGATTGAAACTGTGCTAG | 2.7 |
| TCATTTTCCATTTTGTGACTGTGCTAG | 4.61 |
| TTAGGTATCGACTGTCGGTTAGTGCTA | -0.0644 |
| TTCGATATCAGACTGGATTAGTGCTAG | 0.213 |
| TTAGGTTTCCGACTGCTTTAGTGCTAG | 1.45 |
| TTAGGTTTCGGGGTTCGGTTAGTGCTA | 4.44 |
| TTAGGTTTCGGGTAACGGTTAGTGCTA | 7.75 |
| GACGTTCTCGGACTGGGGACGTGCTAG | 0.401 |

For quick reference, copied from above (set 4):
| Variant | binding fitness [natural log] |
| --- | --- |
| L38K | -1.49 |
| S47H | -0.514 |
| S43M | -0.554 |
| E54G | -1.14 |
| A49Q | -0.51 |
| R53W | -1.5 |
| L45M | -1.39 |
| T37C | -0.737 |
| A46L | -0.549 |
| S43E | -0.271 |
| E33T | -1.21 |
| K34V | -1.16 |
